Measured values of several laboratories.
Each numbered part is a random draw from the data of one study; scales do not carry over between parts.

Series 1
Target: RNA binding protein fox-1 homolog 2, RRM domain, GST-SBP tag (RBFOX2, Homo sapiens, UniProt O43251-10, residues 100-194)
Method: RNA Bind-n-Seq
Form: RNA
Matrix: in vitro
Tested at: 365 nM
Notes: natural RNA segment, single round, ends assumed
Reference: no-protein control
Direction: higher = stronger binding
Measurement: RBNS enrichment (R)
Residues (chain): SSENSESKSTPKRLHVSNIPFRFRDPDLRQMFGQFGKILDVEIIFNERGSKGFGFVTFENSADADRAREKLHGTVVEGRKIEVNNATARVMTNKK
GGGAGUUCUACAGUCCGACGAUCAUGGACACCUUGCUGGACUUGAAGUCCGCUAGUUGGACUUUGCCUAGGGCUUUCAUCUUGCCUUGCCCUCCCUUUCUGUCCCAUCUGCAGCCUCACCAGGUGGGCUUGUAUGGAAUUCUCGGGUGCCAA: 0.943
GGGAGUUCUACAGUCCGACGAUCGGUUGGUGUGGCCACCUUUCCCUUUGUCCAAGACUCCACAUGGAAGGCAUUUGAGCUCGACCUCCGAAAAGCUACCCAGCAAAGAGCAGUCUGUGCCUCUGAGCAGACCGUGGAAUUCUCGGGUGCCAA: 0.311
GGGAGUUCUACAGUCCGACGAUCGGGAGGUGGUUCACACCCCGGAAACAAGUGUCUGGUGGCUGGGCGGGGCCGGCAGGCACAGGGAGGAGGUACAGAAGCCGGCAACGCUUGCUAUUUAUUUUACAAACUGGUGGAAUUCUCGGGUGCCAA: 0.58
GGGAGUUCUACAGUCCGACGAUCGUCACAUAGCACUGUUAAAUUUAUCCGAGGCAUAAGUAGUUCCUAGAGGAGACAGUCUAUCACUCCCCCUAGACCAGGCGCUUUGCGGUGACAGCUGGAGCUAUAUGGAUUGGAAUUCUCGGGUGCCAA: 0.349
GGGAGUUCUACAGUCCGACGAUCGUCCAUCCCCAGCCUCCCAGGGAAGUGCUGCGCUGUUUGUAUUUGUGGUCUGGGCUUUUCUGCCUAGUUCUGUGAUUUCAAUUGACAUGAAAUGGCUAUAAAGAAUUUUGUGGAAUUCUCGGGUGCCAA: 0.504
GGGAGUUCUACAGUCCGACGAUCGCUCCUCCCAACUGCGGCUAAGCAGAGGAUGGCAGUGUUGGAAUAAGAUCUCUCAAAUCUUGGAUUAUAAUUUUAUUAGAGUUUUGUAAUAAAAUUUAUUUUAUAACAAGUGGAAUUCUCGGGUGCCAA: 0.519
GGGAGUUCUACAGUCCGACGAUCAGCCAGGCUUAUGCUGAAACCGGGGAAGUCUGACAUAUGCAGGAAACUCUUUUGAAAUAACUUUGGUGCCCAGGCCAAGUAGAAUGAGAUGAGACUGAGUUUGGCCUCUGUGGAAUUCUCGGGUGCCAA: 1.78
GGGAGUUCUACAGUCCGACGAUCCGACUCUGUAGCCUUCUUGAAGCCCCCAGCCCUAAUCUCACCCUCUCCUCCAGUGUGGGCUUGACCAGGCUUGGCCUUGGGCUAUUUGGACUCAGGUGGGCCCUCUGAACUGGAAUUCUCGGGUGCCAA: 0.466

Series 2
Target: Centromere-binding protein 1, full length, N-terminal tag (CBF1, Saccharomyces cerevisiae, UniProt P17106, residues 1-351)
UniProt P17106, sequence (whole entry, looked up): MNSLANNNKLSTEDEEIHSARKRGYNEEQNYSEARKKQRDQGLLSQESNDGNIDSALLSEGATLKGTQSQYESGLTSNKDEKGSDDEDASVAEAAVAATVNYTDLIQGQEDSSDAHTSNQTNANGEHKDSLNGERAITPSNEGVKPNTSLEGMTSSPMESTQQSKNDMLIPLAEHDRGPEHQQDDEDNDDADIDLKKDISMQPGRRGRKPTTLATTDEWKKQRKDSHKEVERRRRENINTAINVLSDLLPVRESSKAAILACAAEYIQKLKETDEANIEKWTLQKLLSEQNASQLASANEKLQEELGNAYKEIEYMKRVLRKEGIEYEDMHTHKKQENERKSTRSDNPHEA
Method: protein-binding microarray
Form: double-stranded DNA, one strand shown
Matrix: in vitro
Tested at: 0.8 µM
Notes: whole 60-bp probe, no competitor
Direction: higher = stronger binding
Measurement: fluorescence intensity
CTAACGAAACTACCCCACGTTTCAAGTTTTGCTTTCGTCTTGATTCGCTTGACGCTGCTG: 557 a.u.
CTAACACGCATTTACCACGAGAAGACAGCAATATTCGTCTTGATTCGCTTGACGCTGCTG: 597 a.u.
CTAGCAATTAACTATCACACCATAGAATGAGTTTTCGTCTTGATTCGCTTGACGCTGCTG: 618 a.u.
CTACGCTTGACTCCACTCGTGAGTCATGTTTGGTTCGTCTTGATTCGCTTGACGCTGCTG: 583 a.u.
CTATATAAATGACATGATGTGAGCCTTAGTAAGTTCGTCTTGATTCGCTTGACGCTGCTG: 544 a.u.
GAAACAATTTTTGAACACGCAATGCCTATGTATTAGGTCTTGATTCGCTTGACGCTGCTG: 533 a.u.
GAAATGACTTGCGAAGGCATGATGCTTTGATTTTAGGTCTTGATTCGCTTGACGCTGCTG: 531 a.u.
TGTACGAAGCTATGTCACGACTCTATAGTAGTTAGGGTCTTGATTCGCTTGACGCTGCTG: 672 a.u.

Series 3
Cell line: HEK-293T/ACE2
Tested at: concentration not given
Time: 16 (unit not given)
Reference: vehicle
Measurement: viability
CC(CN1c2ccccc2Sc2ccccc21)N(C)C (centres unmarked): 98.9%
CCC1(c2ccccc2)C(=O)NCNC1=O: 106%
Cc1ccccc1C(=O)Nc1ccc(C(=O)N2CCCC(O)c3cc(Cl)ccc32)c(C)c1 (centres unmarked): 104%
CCc1c2c(nc3ccc(OC(=O)N4CCC(N5CCCCC5)CC4)cc13)-c1cc3c(c(=O)n1C2)COC(=O)[C@]3(O)CC: 87.3%

Series 4
Target: Protein C-ets-1 (ETS1, Homo sapiens, UniProt P14921, residues 1-441, full length assumed)
Method: protein-binding microarray
Form: double-stranded DNA, one strand shown
Matrix: in vitro
Tested at: not given
Notes: k-mer, scored over probes, only values ≥0.25
Direction: higher = stronger binding
Measurement: E-score
Residues (chain): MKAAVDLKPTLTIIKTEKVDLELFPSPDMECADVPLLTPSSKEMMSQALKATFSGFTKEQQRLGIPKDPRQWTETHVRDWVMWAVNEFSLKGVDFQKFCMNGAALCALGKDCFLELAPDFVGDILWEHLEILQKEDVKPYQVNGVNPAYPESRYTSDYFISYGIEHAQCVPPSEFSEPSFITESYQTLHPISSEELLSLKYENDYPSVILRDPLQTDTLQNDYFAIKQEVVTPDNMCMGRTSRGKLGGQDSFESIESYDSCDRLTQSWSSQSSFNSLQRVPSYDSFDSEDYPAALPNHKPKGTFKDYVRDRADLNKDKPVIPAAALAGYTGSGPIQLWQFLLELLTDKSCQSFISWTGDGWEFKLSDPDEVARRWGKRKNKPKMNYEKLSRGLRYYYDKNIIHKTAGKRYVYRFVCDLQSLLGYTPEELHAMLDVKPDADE
CCGGCAGG: 0.274
GAAAGGAA: 0.324
TTCCGCAA: 0.419
CTCCGGAC: 0.331

Series 5
Target: Replicase polyprotein 1ab, polymerase (rep, Severe acute respiratory syndrome coronavirus 2, UniProt P0DTD1)
Effect on: enzyme activity
Mode: inhibitor
Tested at: 20 µM
Measurement: inhibition
CCCCC(=O)N(Cc1ccc(-c2ccccc2-c2nnn[nH]2)cc1)[C@H](C(=O)O)C(C)C: -12.6%
CC(C)(C)NCC(O)COc1cc(Cl)ccc1Cl (centres unmarked): 3.7%
O=C(O)c1ccccc1C(=O)Nc1ccc(S(=O)(=O)Nc2nccs2)cc1: 22.9%
CCOCC(O)COc1ccc(NC(=O)CC[S+](C)C)cc1 (centres unmarked): -2.12%
CNCCN(C)Cc1c[nH]nc1-c1ccc(O[C@H]2C[C@H](OCCC3CCOCC3)C2)cc1: -0.83%
C#C[C@]1(O)CC[C@H]2[C@@H]3CCC4=C(CCC(=O)C4)[C@H]3CC[C@@]21C: 23.6%
CS(=O)(=O)N1CCc2c(-c3cnc(N)nc3)nc(N3CCOCC3)nc21: -1.85%
COc1ccc(CCC(=O)c2c(O)cc(O[C@@H]3O[C@H](CO)[C@@H](O)[C@H](O)[C@H]3O[C@@H]3O[C@@H](C)[C@H](O)[C@@H](O)[C@H]3O)cc2O)cc1O: -9.64%
CCc1cc(Cl)c(OC)c(C(=O)NC[C@@H]2CCCN2CC)c1O: -0.43%
COc1ccc(-n2nc(CCC(=O)N(C)O)cc2-c2ccc(Cl)cc2)cc1: 3.11%
CC(C)(Oc1ccc(C(=O)c2ccc(Cl)cc2)cc1)C(=O)O: -3.04%
C[C@@H]1NC(C)(C)CO[C@@]1(O)c1cccc(Cl)c1: -1.56%
Cc1nc(NS(=O)(=O)c2ccc(N)cc2)oc1C: -6.72%
O=C(O[C@@H]1C[C@@H]2C[C@H]3C[C@H](C1)N2CC3=O)c1c[nH]c2ccccc12: -1.01%
C[C@H]1C[C@@H]2[C@H]([C@@H](O)C[C@@]3(C)[C@H]2CC[C@]3(O)C(=O)CO)[C@@]2(C)C=CC(=O)C=C12: 25.3%
C[n+]1cccc(C(=O)[O-])c1: -0.59%
Cc1cccc(C(C)c2c[nH]cn2)c1C (centres unmarked): -8.34%
NCCc1ccccn1: -0.62%
CN1CCCC(n2nc(Cc3ccc(Cl)cc3)c3ccccc3c2=O)CC1 (centres unmarked): -0.39%
COc1cc(NS(C)(=O)=O)ccc1Nc1c2ccccc2nc2ccccc12: 0.25%
CC(C)C(C(=O)Nc1nccs1)c1ccc(Cl)cc1 (centres unmarked): -3.73%
CCCOC(C(=O)OC1CCN(C)CC1)(c1ccccc1)c1ccccc1: -0.15%
O=C1[C@@H]2[C@H]3CC[C@H](C3)[C@@H]2C(=O)N1C[C@@H]1CCCC[C@H]1CN1CCN(c2nsc3ccccc23)CC1: -1.6%
Cc1nc(Cn2cnc3c2c(=O)n(C)c(=O)n3C)no1: 5.61%
Oc1cc2c(c(Cl)c1O)CCNCC2c1ccccc1 (centres unmarked): 8.51%

Other studies, line by line
CC[PH](CC)(CC)[Au][S][C@@H]1O[C@H](COC(C)=O)[C@@H](OC(C)=O)[C@H](OC(C)=O)[C@H]1OC(C)=O — inhibition (Replicase polyprotein 1ab, main protease (rep, Severe acute respiratory syndrome coronavirus 2, UniProt P0DTD1); enzyme activity, inhibitor; 20 µM, hit confirmation): 99.6%

A few entries again (series 2):
CTAGCAATTAACTATCACACCATAGAATGAGTTTTCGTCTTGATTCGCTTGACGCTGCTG: 618 a.u.
CTACGCTTGACTCCACTCGTGAGTCATGTTTGGTTCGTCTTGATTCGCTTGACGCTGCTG: 583 a.u.
CTATATAAATGACATGATGTGAGCCTTAGTAAGTTCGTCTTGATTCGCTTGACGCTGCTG: 544 a.u.
GAAACAATTTTTGAACACGCAATGCCTATGTATTAGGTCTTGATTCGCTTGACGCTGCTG: 533 a.u.
GAAATGACTTGCGAAGGCATGATGCTTTGATTTTAGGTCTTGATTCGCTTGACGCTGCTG: 531 a.u.
TGTACGAAGCTATGTCACGACTCTATAGTAGTTAGGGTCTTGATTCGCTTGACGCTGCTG: 672 a.u.
